# Measurements collected from several papers.
# Numbered parts are unrelated; each lists some results of a single study. Substitutions count along the parent as printed.

# Block 1
# Target: RING finger protein unkempt homolog, zinc fingers 1-6, GST-SBP tag (UNK, Homo sapiens, UniProt Q9C0B0, residues 30-357)
# Chain of UniProt Q9C0B0 (30-357, looked up): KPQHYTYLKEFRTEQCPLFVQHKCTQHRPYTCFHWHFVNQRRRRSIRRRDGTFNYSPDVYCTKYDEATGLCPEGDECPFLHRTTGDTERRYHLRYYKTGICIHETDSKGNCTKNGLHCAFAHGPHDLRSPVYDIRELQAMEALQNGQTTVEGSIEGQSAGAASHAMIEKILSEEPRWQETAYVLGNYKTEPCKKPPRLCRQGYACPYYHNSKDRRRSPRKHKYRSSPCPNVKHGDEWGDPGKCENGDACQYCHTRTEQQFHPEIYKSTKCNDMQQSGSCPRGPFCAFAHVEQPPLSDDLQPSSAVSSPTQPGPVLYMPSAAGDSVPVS
# Method: RNA Bind-n-Seq
# Form: RNA
# Sample: in vitro
# Tested at: not given
# Notes: RNA with constant flanks, human-mouse chimeric sites, ends assumed
# Reference: input RNA pool
# Reading: higher = stronger binding
# Constant ends, left off below: GGGAGUUCUACAGUCCGACGAUC … CAACAGAGGAUUGAGCAUCA
Oligonucleotide,bound/input enrichment
ACUCAGAGAUCCACCUCCCAAAGUGCUGGGAGUAAAGGUGUGGCCACCACACCUAACUUCAUAGACAUAUAUUUUUUUUAAUAUGAAUGAACUCUUGCGUCCAGGGAAGAAAGAUUUGUU,1.97 ratio
UUUCUACUGCAGCAAACGAUGCUAAGAAUUAAGGAUCCUAAGAAGUCACUGGAUUUUUAUACGAGGGUUCUUGGACUGACCCUCCUGCAGAAGCUUGACUUCCCUGCUAUGAAGUUCUCG,0.219 ratio
UUAAUCCCCUUUACUGCUCCCCCACUUGUCAUGCUGAUAACAAAGUCUUAUAUCCCCGUCCUAGCUUUCACUCAGAUGGCUUAUGGAGCCAGUUUCCUAGCUUUCUUGGGAGGGAUCAGA,0.245 ratio
AAAUCGUGUGUGUCAAAUAUUGAAAGUGCUUUAUCUACACUCCAAUAUGUAAGCAGUAUAGUAGUUUCUUUAGAGAAUAGGUCAGCCAUUGUAAAGUACAAUGCAAGCUUAGUCACUCCA,21.9 ratio
GGGACUGAUUCAUCCCAAGGACAGGCCGCCCAGUCUGGUGUUUGGAAUGAUGACAGUAUGGAAGGGCCUAGUCAAAAUGUUGAAGCUGAGUCAAUUCAGGAUGCCAUGAGUAUGGAAGAG,0.194 ratio
CUGAGGAUACCACUGAAGAGACCUUAAAAGAAUCAUUUGAGGGCUCUCGUUCGGGCAGAAUAGUCACUGAUCGGGAAACUGGUUCUUCCAAAGGGUUUGGUUUUGUAAGACUUCAACGUG,0.298 ratio
UGUGCAUAUGAUGCUUGAGAUGGUUUUUGCAAAAGCAGACAUCGCUGCAAGGUAAUCACAAUAGAUACAAGCGGUAUUUUAAACCUUUGAAAUAAAUGGAUGUAACUGUACCUUGGUACA,0.247 ratio
CGCUGGCGUUGAACUGUGGACUCUGAUCUUGAUCUCUUCUCAGGCACGUGUGCCUUCUCUUAGUCCCUGUUUUCGGGAUGUUAUGAAUCUCAGUACUGUGGUUUGAAAGCACCAGCUUUG,0.218 ratio
UUCUAGUAUGAUGGUGAUAUUGGCAAUUAUUAUUAUGGCCAGGGUCAUCCCAUGAAGCCUCAUAGAAUCCGGAUGACUCAUAACUUGCUGUUAAAUUAUGGUUUAUACCGAAAAAUGGAA,0.218 ratio
ACAGUUAUAUUGUUGAGUUUCAUUUUCAUAUAUUCUUGUAGUGUCUGCUUGCCUGUGUCUUUUAGUAAAAUAAAAUAUUAAAAUUACAAUAUUUUAGCAUGGUAUUUAACAUUUUCUAAA,3.47 ratio
GAGCCCAGCCGGCAGUUUGUAAAGGACUCAAUUCGGCUGGUUAAAAGAUGCACUAAACCUGAUAGAAAAGAAUUCCAGAAGAUUGCCAUGGCUACAGCUAUAGGAUUUGCUAUCAUGGGA,0.212 ratio

# Block 2
# Target: ABI1, truncated, D143A, DHFR fusion (Arabidopsis thaliana)
# Method: DHFR PCA, deep sequencing
# Sample: yeast
# Notes: methotrexate growth selection, single substitutions
# Added: (+)-ABA 0.11 µM
# Reference: wild-type fitted maximum
# Reading: higher = stronger binding
# Parent: PYL1, truncated, DHFR fusion (Arabidopsis thaliana); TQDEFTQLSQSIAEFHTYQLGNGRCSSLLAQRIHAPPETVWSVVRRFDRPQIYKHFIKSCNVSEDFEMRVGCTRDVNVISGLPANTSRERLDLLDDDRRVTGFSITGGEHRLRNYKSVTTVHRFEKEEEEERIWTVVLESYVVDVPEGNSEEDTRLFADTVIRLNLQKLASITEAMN; partner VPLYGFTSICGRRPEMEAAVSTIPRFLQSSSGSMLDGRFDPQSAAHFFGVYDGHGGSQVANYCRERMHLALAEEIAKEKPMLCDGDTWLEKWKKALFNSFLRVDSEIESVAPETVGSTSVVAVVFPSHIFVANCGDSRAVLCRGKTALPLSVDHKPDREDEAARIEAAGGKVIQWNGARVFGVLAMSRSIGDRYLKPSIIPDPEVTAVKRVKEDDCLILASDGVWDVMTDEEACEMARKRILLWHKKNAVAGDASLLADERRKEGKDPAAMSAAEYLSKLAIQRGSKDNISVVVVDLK
Change,relative binding score [%]
D95V,-6.9
P83Y,4.59
K126Q,45.5
S27K,0.765
S59G,8.11
S9Q,57.5
V137I,1.74
L156H,4.25
V70D,-2.68
D96E,39.4
L93I,74.7
G148C,1.33
E139I,-9.71
C25D,-5.89
V70F,-5.79
S117I,7.1
H34V,2.86

# Block 3
# Target: Prothrombin, mature alpha-thrombin (F2, Homo sapiens, UniProt P00734)
# Method: aptamer microarray, sandwich
# Form: DNA with 2'F-ANA
# Sample: in vitro
# Tested at: 200 nM
# Notes: whole 15-mer aptamer, many near background
# Added: Cy3 exosite-II aptamer, 400 nM
# Reading: higher = stronger binding
# Oligonucleotide: GGTTGGTGTGGTTGG
Modification,mean fluorescence intensity [a.u.]
2'F-ANA at 1 2 3 4 7 10 11 12 14 15,61.6
2'F-ANA at 1 4 7 8 10 11 12 13 15,54.9
2'F-ANA at 1 2 3 4 5 11 13 14 15,46.6
2'F-ANA at 1 3 6 8 10 14 15,56.8
2'F-ANA at 4 6 7 8 9 10 11 12,93.1
2'F-ANA at 1 2 3 4 7 10 15,58.1
2'F-ANA at 1 2 4 6 7 8 12 14 15,65.3
2'F-ANA at 1 2 4 6 9 12 14,51.7
2'F-ANA at 5 7 8 9 10 12 13 14,53.6
2'F-ANA at 1 4 7 8 9 10 11 13 14 15,48.6
2'F-ANA at 1 3 5 9 11 13 15,51.6
2'F-ANA at 2 3 4 5 6 7 9 10 12 13 15,63.4
2'F-ANA at 1 5 6 10 11 12 13,51.5
2'F-ANA at 3 9 12 13 15,1080
2'F-ANA at 1 3 4 6 8 10 11 12 13 15,63.4
2'F-ANA at 2 3 4 5 6 7 10 12 14 15,47.5

# Block 4
# Target: Histone acetyltransferase KAT6A, winged helix 1, GST fusion (KAT6A, Homo sapiens, UniProt Q92794, residues 1-85)
# Method: protein binding microarray
# Form: double-stranded DNA, one strand shown
# Sample: in vitro
# Tested at: not given
# Notes: 8-mer, flanks averaged, mean of 2 arrays, mostly near background
# Reference: not given
# Reading: higher = stronger binding
# Construct (chain): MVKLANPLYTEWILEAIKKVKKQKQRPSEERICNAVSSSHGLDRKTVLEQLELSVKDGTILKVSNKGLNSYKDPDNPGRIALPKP
Oligonucleotide,E-score
CTGGACCA,-0.222
GCTTGTGA,-0.128
CATTTTAC,-0.0186
ATTCTAAG,-0.0504
CGTCGGCA,0.434
CATATCAG,0.0805
CTCCCGCC,0.357
CCCGGGGA,0.224
CACTCTCG,-0.0153
GAGTGATC,-0.138
GCCTTATA,0.0257
CGTAAAAG,0.171
GGCACAAC,-0.038
AGTAGTTC,-0.07
ATCGTTCA,-0.184
TATTCAGA,-0.077
AGTTGGCC,-0.0318
GCGCAGTA,0.3
AACAGCGG,0.183

# Block 5
# Target: CCNB2, cyclin fold, Cln2 fusion (human)
# Method: yeast growth competition, sequencing
# Sample: yeast
# Notes: weak parent motif
# Reference: not given
# Reading: higher = stronger binding
# Parent: RBL1 docking peptide (human); GSAKRRLFGEDPP
Change,normalised enrichment score
R6C,-0.0578
G1W,0.645
S2W,-0.225
R6M,-0.29
R6F,-0.207
S2M,0.0404
D11K,0.545
D11L,0.489
E10K,0.0199
P12D,-0.0793
K4T,0.55
K4E,-0.474
R5E,-0.766
K4H,-0.313
F8G,0.239
F8L,0.0428
G9F,0.277
R6N,0.555
F8H,0.313
K4R,-0.0133
D11Q,0.633
F8S,-0.168
L7C,0.355
G1D,0.0691
L7P,0.554

# Block 6
# Target: RNA binding protein fox-1 homolog 2, RRM domain, GST-SBP tag (RBFOX2, Homo sapiens, UniProt O43251-10, residues 100-194)
# Method: RNA Bind-n-Seq
# Form: RNA
# Sample: in vitro
# Tested at: 365 nM
# Notes: natural RNA segment, single round, ends assumed
# Reference: no-protein control
# Reading: higher = stronger binding
# Constant ends, left off below: GGGAGUUCUACAGUCCGACGAUC … UGGAAUUCUCGGGUGCCAA
Oligonucleotide,RBNS enrichment (R)
AUUUAAAUUGUGCACAGCAACAGGUUCUCAGUUCUGCCAGUUCCUUUAUGCUCCUGUAAUCGGCUAACUGUGGAUUUGAUGUCAAGUAUGCAUGUUACCUUAUGUGUAUU,2.47
AAUUCUGAGGAACCUUGUGCCCAGUUGUUACAAAGUUUAAGCUUUGAACCUAACCUGCAUCCCAUUUCCAGCCUCUUUUCAAGCUGAGAAAAAAACAAAAAACACGUUUG,0.528
CUGACCCUUUGGAGGGGGUCUCUGUGUGCUGAAGCUAACUCAAGAUGGAAAGUGAAACCACAUGUGCCGUGACCUUUAGGUUUUAUGAGUAGACAGUGUUCAUUUGAUUU,0.413
CAUUUCUUCUCAUCCCCUGCUUGGCUUCUCUGCAUGUGGUCAUCUGCUAUGGCCUGGUGUGUAAUGGGUUAAACAAUAAGCCACUGCCUGACACCCACAUCCACUUUAGC,3.96
UAGUCUCUCUUUACAUAUUACUAUAUGGAAAUGAAUUGCUCUGUGCUGAAAUUUGAAGACCAGAUAAUGAAACUGAAAAGCAAACAAUUUUACUGAAUCUGUCUACCCUU,0.51
UGUGCAUGCGCAUGUUUAACCACAGGCCAGAGAACUCAAUUCUGAUGUCGUAAGUUCUCUGUAAGUGAAAUGGGGUAGACUGUAUGAUUUUCCUAUUGCCAAAAGAAAGA,41.8
CUGCCUGCUUUCUCAGAGUCUGGGCAGGCCGAUGGGAACUGUCAUCUCCUUAGGGAUGUGUGUGUUCAGUGCAAAGUAAGAAAUAUGAAAAUAUCCCUGUUCUUAGUUAC,0.362
ACUUAUGUGAGGGGUUUUCCCAUUUUUUGUCUUGUUGGUGCUCAAAAAGUUUUGGAUUUUGGAGCAUUUCGGAUUUUGGAUUUUUGGAUUAGGGUUGCUCAACCCAUAUU,1.47
UUCUUGCUCCUUCCAUGGCAGGAUGAGAAGGAAGGCCUAAGAGGCUGGCCAGGGGCCUGGUGUAGACACAGUAGAAGACAGUCAACUAUGGGCGCAUUCUGUCUGGAGCU,0.646
ACCAAUAAUACUUGACGGAAGGCUCAGUAAUUAGUUAUGAAUAUGGAUAUCCUCAAUUCUUAAGACAGCUUGUAAAUGUAUUUGUAAAAAUUGUAUAUAUUUUUACAGAA,1.17
UUGGGCCUGUACACUCCAGCUCUAAGGGCCAGUAGUUUGAAGCCCUAUAAGUGGUGCCCAGUGUUCAUGGGGUCUGGUCUUUGACCGGCCUCUGGUGCCCACUUUUGUCU,0.57
UUCUUUCCUGUUCCAUCCAACUUACCCAUCAUGCAGGGACAGCUGAGGUCCACUCGUGACCUAGGCCGCCCCACUCCCAUCCACCGAGAGUCAAGUGAUGACACGACACA,0.798

# Single results of other studies
Molecule,target,test,test system,conditions,how to read,endpoint,value
"PhoQ, residues 284 288 289 292 302 303 SLSVQF","PhoP, residues 12 14 15 18 19 LHSVW (Escherichia coli, UniProt P23836)","Sort-seq, measured: YFP reporter",E. coli,"PhoQ-PhoP variant library, added: 10 µM Mg2+","reference: high Mg2+ state, higher = stronger signaling",fold induction,8.45

# For quick reference, copied from above (block 4):
Oligonucleotide,E-score
ATTCTAAG,-0.0504
CGTCGGCA,0.434
CATATCAG,0.0805
CTCCCGCC,0.357
CCCGGGGA,0.224
CACTCTCG,-0.0153
GAGTGATC,-0.138
GCCTTATA,0.0257
CGTAAAAG,0.171
GGCACAAC,-0.038
AGTAGTTC,-0.07
ATCGTTCA,-0.184
